Measured values collected from several papers.
Each line is one published result; not all experiments were run side by side.
Target: Acetylcholinesterase (ACHE, Homo sapiens, UniProt P22303)

Compound = COc1ncc2nc(C)n(Cc3ncc(S(N)(=O)=O)cc3F)c2c1-c1ccccc1; test = enzyme activity, inhibitor; conditions = 10 µM, safety panel; inhibition = -3.72%
Compound = CCCCNC(=O)c1ccc2nc(CC)c(N(C)Cc3ccc(OC)cc3)n2c1; test = enzyme activity, inhibitor; system = SH-SY5Y; conditions = IC50 concentration; inhibition = 61%
Compound = Cc1cc(-c2ccc3ccccc3c2)nnc1NCCN1CCN(C)CC1; test = enzyme activity, inhibitor; conditions = 10000 nM; inhibition = 33%
Compound = N[C@H](C(=O)N1CCCC1)C1CCN(c2nccc3c(-c4ncc(Cl)cc4Cl)cccc23)CC1; test = enzyme activity, inhibitor; conditions = 10 µM; inhibition = 5%
Compound = Cc1cnc(C2CCOCC2)n1C1CCN(C(=O)Nc2ccccc2F)CC1; test = enzyme activity, inhibitor, Ellman; conditions = 10 µM; inhibition = 16.8%
Compound = CS(C)(=O)=Nc1ccc(-c2ccc(-c3nc4cc(O[C@@H]5CO[C@H]6[C@@H]5OC[C@H]6O)[nH]c4cc3F)cc2)cc1; test = enzyme activity, inhibitor; conditions = 10 µM; inhibition = -5%
Compound = Cc1cc(Nc2nc(C[C@@]3(C(=O)O)CCN(Cc4cccc(Cl)c4F)[C@H](C)C3)cc(C)c2F)[nH]n1; test = enzyme activity, inhibitor; conditions = 10 µM; inhibition = 20.8%
Compound = O=C(Nc1cccnc1)c1cccc(C2(CNCc3ccc(F)c(F)c3)CC2)c1; test = enzyme activity, inhibitor; system = SH-SY5Y; conditions = IC50 concentration; inhibition = 28%
Compound = O=C(NCC1CCc2nccn2C1)c1cnc2ccccn12 (stereo not drawn); test = enzyme activity, inhibitor, Ellman; conditions = 10 µM; inhibition = 27.8%
Compound = CCN(CC)CCOc1ccc(-c2nnn(Cc3ccc(OC)cc3)c2N)cc1; conditions = concentration not given; inhibition = -0.97%
Compound = CC(NC(=O)c1ccccc1F)c1nnc2ccccn12 (stereo not drawn); test = enzyme activity, inhibitor, Ellman; conditions = 10 µM; inhibition = 7.6%
Compound = C[C@H](NCc1ccc(-c2ccc(C(F)(F)F)cc2)cc1)C(N)=O; test = enzyme activity; conditions = 1 µM, together with: 700 µM acetylthiocholine; inhibition = 27%

Some of these lines once more:
Compound = Cc1cc(Nc2nc(C[C@@]3(C(=O)O)CCN(Cc4cccc(Cl)c4F)[C@H](C)C3)cc(C)c2F)[nH]n1; test = enzyme activity, inhibitor; conditions = 10 µM; inhibition = 20.8%
